Assay results pooled from the literature.
A part holds a random share of what one study measured.

Sample 1
Target: Histone acetyltransferase KAT6A, both winged helices, GST fusion (KAT6A, Homo sapiens, UniProt Q92794, residues 1-181)
Technique: protein binding microarray
Molecule type: double-stranded DNA, one strand shown
Matrix: in vitro
Tested at: not given
Notes: 8-mer, flanks averaged, mean of 2 arrays, mostly near background
Baseline: not given
Direction: higher = stronger binding
Construct (chain): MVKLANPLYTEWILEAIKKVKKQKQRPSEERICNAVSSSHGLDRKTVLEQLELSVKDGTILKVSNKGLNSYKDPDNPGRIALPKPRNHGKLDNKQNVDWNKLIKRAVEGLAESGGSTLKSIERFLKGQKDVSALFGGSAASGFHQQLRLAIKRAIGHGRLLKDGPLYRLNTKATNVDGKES
| Sequence | E-score |
| --- | --- |
| CAATGGAG | -0.0689 |
| GGTATTAC | -0.0256 |
| ATGCCTAA | -0.2 |
| AACACATC | -0.0869 |
| ATCTCGCC | 0.0815 |
| AGCAGTCC | -0.227 |
| CTAGGTCA | -0.179 |
| GAGTGAGC | -0.244 |

Sample 2
Target: Interferon regulatory factor 5, full length, phosphomimetic (IRF5, Homo sapiens, UniProt Q13568-2, residues 1-514, K96S/S451D/S453D/S456D/S462D)
Technique: protein-binding microarray
Molecule type: double-stranded DNA, one strand shown
Matrix: in vitro
Tested at: 250 nM
Notes: 60-bp whole probe
Together with: salmon DNA 0.4 mg/ml
Baseline: random background probes
Direction: higher = stronger binding
Constant ends, left off below: GCCTAGCAC … GTCTTGATTCGCTTGACGCTGCTG
| Sequence | log fluorescence [z-score] |
| --- | --- |
| GACGGACTGCGGTATCGGGACGTGCTA | 0.0198 |
| GATTTTTTAGCTTGCAAAAAGTGCTAG | 0.137 |
| GACGATTTCGGAACTGGAGACGTGCTA | 1.91 |
| TCACATTGCTGCCCTCAGACTGTGCTA | -0.0768 |
| GACGGTCTCGGTGTCGGGACGTGCTAG | 0.0434 |
| TCAATACTCTTCCATGGAACTGTGCTA | 0.478 |
| TTAGGTATCCCTTTCCTTTAGTGCTAG | 0.531 |
| ACCACTCTTCCTTTACTTTCGTGCTAG | 3.57 |

Sample 3
Target: Sal-like protein 4, full length isoform B (SALL4, Homo sapiens, UniProt Q9UJQ4-2, residues 1-616)
Technique: universal PBM
Molecule type: double-stranded DNA, one strand shown
Matrix: in vitro
Tested at: not given
Notes: 8-mer, flanks averaged, mean of replicates
Direction: higher = stronger binding
| Sequence | E-score |
| --- | --- |
| AAACGAGC | 0.074 |
| ACATCCAC | 0.0617 |
| AGTAGGGA | -0.0198 |
| GGTATGAA | 0.281 |
| GCTTGGAA | -0.0953 |
| TATCGTAA | 0.233 |
| CCCACAAA | 0.0949 |
| AAGCCGGC | -0.32 |

Sample 4
Target: Replicase polyprotein 1ab, polymerase (rep, Severe acute respiratory syndrome coronavirus 2, UniProt P0DTD1)
Read-out: enzyme activity
Action: inhibitor
Tested at: 20 µM
| Structure (SMILES) | inhibition |
| --- | --- |
| CC(=O)O[C@]1(C(C)=O)CC[C@H]2[C@@H]3C=C(C)C4=CC(=O)CC[C@@H]4[C@H]3CC[C@@]21C | -2.04% |
| CC[N+](C)(C)c1cccc(O)c1 | -1.5% |
| N[C@@H](CC(=O)NO)C(=O)O | -1.5% |
| Cc1sc2c(c1C)C(c1ccc(Cl)cc1)=N[C@@H](CC(=O)Nc1ccc(OCCOCCOCCOCCNc3cccc4c3C(=O)N(C3CCC(=O)NC3=O)C4=O)cc1)c1nnc(C)n1-2 (some centres unmarked) | -15.7% |
| Cc1ccc(NC(=O)c2cccc(N(C)C)c2)cc1NC(=O)c1ccc(O)cc1 | 3.37% |
| c1ccc(Oc2nc(NC3CCCCC3)c3[nH]cnc3n2)cc1 | -0.1% |
| O=C(NCc1ccc(Oc2ccccc2)cc1)c1nc(-c2cc(Br)c(O)c(Br)c2)no1 | -7.86% |
| CCN1CCN(c2cc(-c3ccc(F)cc3)c3c(n2)CCCCCC3)CC1 | -4.29% |
| CC(C)=CCC/C(C)=C/CC/C(C)=C/CC/C(C)=C/CC1=C(C)C(=O)c2ccccc2C1=O | -4.54% |
| OC[C@@H](O)CN1CCN(c2ccccc2)CC1 | -2.11% |
| CC1(C)CCC(C)(C)c2cc(Cn3cccn3)c(/C=C/c3ccc(C(=O)O)cc3)cc21 | 1.68% |
| CCOc1cc(N2CCC(O)CC2)ccc1Nc1ncc2c(n1)N(C)c1ccccc1C(=O)N2C | -0.92% |
| C[C@]12CC[C@H](O)C[C@H]1CC[C@@H]1[C@@H]2C[C@@H](O)[C@]2(C)[C@@H](C3=CC(=O)OC3)CC[C@]12O | -0.92% |
| c1cc(OCCN2CCCCC2)cc(-c2n[nH]c3ccc(-c4nnc[nH]4)cc23)c1 | 14% |
| CCCC(C)NC(=O)c1ccc(Cl)c(Cl)c1 (centres unmarked) | -25.6% |
| Cc1cc(Cl)ccc1OCCCC(=O)NO | 0.81% |
| CCOC(=O)C1=C(C)NC2=C(C(=O)CC(C)(C)C2)C1c1ccc(-c2ccccc2)cc1 (centres unmarked) | 2.94% |
| CNCc1cc(-c2ccccc2F)n(S(=O)(=O)c2cccnc2)c1 | -4.34% |
| CC[C@H]1[C@@H](O)[C@@H]2[C@H](CC[C@]3(C)[C@@H]([C@H](C)CCOS(=O)(=O)O)CC[C@@H]23)[C@@]2(C)CC[C@@H](O)C[C@@H]12 | 0.75% |
| CC(C)COc1ccc(CNC(=O)N(Cc2ccc(F)cc2)C2CCN(C)CC2)cc1 | -2.89% |
| COc1ccc(-c2cc(C(F)F)nn2-c2ccc(S(N)(=O)=O)cc2)cc1F | -5.44% |
| O=C(Nc1cnn2ccc(N3CCC[C@@H]3c3cc(F)ccc3F)nc12)N1CC[C@H](O)C1 | -2.57% |
| N=C1NC(=O)N2CC12 (centres unmarked) | 6.05% |
| O=C1O[C@H](CO)[C@@H](O)[C@H](O)[C@H]1O | -2.84% |
| C=C1C(=O)O[C@@H]2C[C@@]3(C)CCC[C@H](C)C3=C[C@H]12 | -16.3% |

Sample 5
Target: Replicase polyprotein 1ab, main protease (rep, Severe acute respiratory syndrome coronavirus 2, UniProt P0DTD1)
Read-out: enzyme activity
Action: inhibitor
Tested at: 20 µM
Notes: primary screen
| SMILES | inhibition |
| --- | --- |
| CO[C@@H]1[C@H](OC(=O)NC(=O)CCl)CC[C@]2(CO2)[C@H]1[C@@]1(C)O[C@@H]1CC=C(C)C | 64.9% |
| NC(CO)C(=O)NNCc1ccc(O)c(O)c1O (centres unmarked) | 99.5% |
| CCCCCCNC(=O)n1cc(F)c(=O)[nH]c1=O | 101% |
| COc1cc(-c2ccc(/N=N/c3ccc4c(S(=O)(=O)O)cc(S(=O)(=O)O)c(N)c4c3O)c(OC)c2)ccc1/N=N/c1ccc2c(S(=O)(=O)O)cc(S(=O)(=O)O)c(N)c2c1O | 101% |

Sample 6
Cell line: HEK-293T
Organism: VSV pseudotyped with SARS-CoV-2 spike
Tested at: 10 µM
Time: 16 h
| SMILES | pseudovirus infection [%] |
| --- | --- |
| CN1CCC(=C2c3ccccc3C=Cc3ccccc32)CC1 | 40.5 |
| CCOC(=O)N1CCC(=C2c3ccc(Cl)cc3CCc3cccnc32)CC1 | 66.7 |
| CNCCCC1c2ccccc2C=Cc2ccccc21 | 36.7 |

Some of these lines once more (sample 4):
| Structure (SMILES) | inhibition |
| --- | --- |
| c1ccc(Oc2nc(NC3CCCCC3)c3[nH]cnc3n2)cc1 | -0.1% |
| Cc1cc(Cl)ccc1OCCCC(=O)NO | 0.81% |
| CC(=O)O[C@]1(C(C)=O)CC[C@H]2[C@@H]3C=C(C)C4=CC(=O)CC[C@@H]4[C@H]3CC[C@@]21C | -2.04% |
| CCOC(=O)C1=C(C)NC2=C(C(=O)CC(C)(C)C2)C1c1ccc(-c2ccccc2)cc1 (centres unmarked) | 2.94% |
| O=C(NCc1ccc(Oc2ccccc2)cc1)c1nc(-c2cc(Br)c(O)c(Br)c2)no1 | -7.86% |
| CCOc1cc(N2CCC(O)CC2)ccc1Nc1ncc2c(n1)N(C)c1ccccc1C(=O)N2C | -0.92% |
| N=C1NC(=O)N2CC12 (centres unmarked) | 6.05% |
